Assay results from different studies.
Compare with care: the assays were run in different laboratories. Several values in a cell are separate wells, animals, samples, runs or records. Numbers after ± are the reported error.
prp N63Q: Ribosomal processing cysteine protease Prp (prp, Staphylococcus aureus, UniProt Q2FXS9, N63Q)
F2: Prothrombin (F2, Homo sapiens, UniProt P00734)
Chain of UniProt Q13258 (whole entry, looked up): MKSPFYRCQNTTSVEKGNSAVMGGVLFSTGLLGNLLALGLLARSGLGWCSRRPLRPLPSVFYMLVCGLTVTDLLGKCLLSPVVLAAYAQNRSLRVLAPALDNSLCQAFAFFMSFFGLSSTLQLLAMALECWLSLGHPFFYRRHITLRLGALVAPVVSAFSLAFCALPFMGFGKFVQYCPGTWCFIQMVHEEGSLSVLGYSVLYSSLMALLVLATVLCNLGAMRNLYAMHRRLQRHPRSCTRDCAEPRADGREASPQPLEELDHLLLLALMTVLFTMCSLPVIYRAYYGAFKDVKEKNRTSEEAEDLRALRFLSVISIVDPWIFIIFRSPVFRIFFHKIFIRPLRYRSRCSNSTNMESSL
Chain of UniProt O75884 (whole entry, looked up): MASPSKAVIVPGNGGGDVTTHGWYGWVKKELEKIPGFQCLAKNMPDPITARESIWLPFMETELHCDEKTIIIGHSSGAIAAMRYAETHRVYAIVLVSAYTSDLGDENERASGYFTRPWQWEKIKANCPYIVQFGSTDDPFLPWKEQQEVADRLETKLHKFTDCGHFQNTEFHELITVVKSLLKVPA
Chain of UniProt Q8TDX7 (whole entry, looked up): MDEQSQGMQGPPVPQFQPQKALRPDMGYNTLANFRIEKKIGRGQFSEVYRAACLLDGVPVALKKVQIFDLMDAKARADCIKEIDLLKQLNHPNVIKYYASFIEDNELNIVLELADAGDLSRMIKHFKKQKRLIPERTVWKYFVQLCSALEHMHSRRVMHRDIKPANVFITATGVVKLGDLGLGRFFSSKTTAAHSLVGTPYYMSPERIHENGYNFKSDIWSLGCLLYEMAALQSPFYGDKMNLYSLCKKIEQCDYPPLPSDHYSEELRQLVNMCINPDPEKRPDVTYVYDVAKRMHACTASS
Chain of UniProt P51686 (whole entry, looked up): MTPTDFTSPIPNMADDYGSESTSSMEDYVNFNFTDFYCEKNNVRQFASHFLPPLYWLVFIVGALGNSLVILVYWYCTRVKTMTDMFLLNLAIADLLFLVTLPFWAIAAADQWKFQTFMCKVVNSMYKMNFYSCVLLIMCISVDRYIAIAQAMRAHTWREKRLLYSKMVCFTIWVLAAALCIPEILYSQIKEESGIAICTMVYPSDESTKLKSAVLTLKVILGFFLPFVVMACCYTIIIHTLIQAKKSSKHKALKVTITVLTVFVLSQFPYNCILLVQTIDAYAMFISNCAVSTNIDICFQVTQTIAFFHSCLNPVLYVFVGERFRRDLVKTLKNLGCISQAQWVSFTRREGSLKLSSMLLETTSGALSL
Chain of UniProt P00811 (whole entry, looked up): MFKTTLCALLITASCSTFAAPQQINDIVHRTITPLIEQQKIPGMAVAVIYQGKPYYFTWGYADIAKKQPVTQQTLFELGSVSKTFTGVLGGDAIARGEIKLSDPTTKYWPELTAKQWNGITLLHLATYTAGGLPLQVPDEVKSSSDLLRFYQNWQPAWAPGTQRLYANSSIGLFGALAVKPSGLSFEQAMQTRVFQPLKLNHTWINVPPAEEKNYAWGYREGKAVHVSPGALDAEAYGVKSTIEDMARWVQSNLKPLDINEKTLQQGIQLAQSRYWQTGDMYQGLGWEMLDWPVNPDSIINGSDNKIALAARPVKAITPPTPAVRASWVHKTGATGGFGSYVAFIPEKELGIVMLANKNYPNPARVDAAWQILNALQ
Chain of UniProt Q13043 (whole entry, looked up): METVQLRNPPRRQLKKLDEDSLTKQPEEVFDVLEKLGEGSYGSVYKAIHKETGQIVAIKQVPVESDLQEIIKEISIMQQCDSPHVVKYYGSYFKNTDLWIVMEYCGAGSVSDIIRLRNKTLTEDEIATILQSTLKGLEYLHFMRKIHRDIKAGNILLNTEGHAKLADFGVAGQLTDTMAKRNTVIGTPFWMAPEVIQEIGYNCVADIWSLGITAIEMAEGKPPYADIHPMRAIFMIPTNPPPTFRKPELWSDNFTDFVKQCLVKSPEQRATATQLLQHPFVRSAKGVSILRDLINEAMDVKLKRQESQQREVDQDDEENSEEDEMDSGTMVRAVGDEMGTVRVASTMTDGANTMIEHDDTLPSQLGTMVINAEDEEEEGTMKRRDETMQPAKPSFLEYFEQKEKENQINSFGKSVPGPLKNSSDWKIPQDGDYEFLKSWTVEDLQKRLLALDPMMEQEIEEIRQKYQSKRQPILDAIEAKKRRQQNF
Chain of UniProt Q09013 (whole entry, looked up): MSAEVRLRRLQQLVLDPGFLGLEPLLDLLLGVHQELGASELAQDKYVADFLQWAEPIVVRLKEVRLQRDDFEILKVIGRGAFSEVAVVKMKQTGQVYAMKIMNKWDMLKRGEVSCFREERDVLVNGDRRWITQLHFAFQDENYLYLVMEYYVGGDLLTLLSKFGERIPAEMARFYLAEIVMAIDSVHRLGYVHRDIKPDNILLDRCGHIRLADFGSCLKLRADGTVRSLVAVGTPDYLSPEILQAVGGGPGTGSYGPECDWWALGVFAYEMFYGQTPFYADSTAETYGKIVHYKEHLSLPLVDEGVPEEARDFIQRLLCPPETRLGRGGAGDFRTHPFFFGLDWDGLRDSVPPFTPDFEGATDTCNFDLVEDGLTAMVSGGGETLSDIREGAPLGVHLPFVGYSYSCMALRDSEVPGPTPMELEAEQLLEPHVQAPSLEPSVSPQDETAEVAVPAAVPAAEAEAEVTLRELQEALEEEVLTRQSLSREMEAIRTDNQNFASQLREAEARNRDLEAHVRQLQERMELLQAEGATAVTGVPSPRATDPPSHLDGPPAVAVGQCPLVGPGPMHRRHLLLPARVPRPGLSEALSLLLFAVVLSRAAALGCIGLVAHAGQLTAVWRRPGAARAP
Chain of UniProt P34969 (whole entry, looked up): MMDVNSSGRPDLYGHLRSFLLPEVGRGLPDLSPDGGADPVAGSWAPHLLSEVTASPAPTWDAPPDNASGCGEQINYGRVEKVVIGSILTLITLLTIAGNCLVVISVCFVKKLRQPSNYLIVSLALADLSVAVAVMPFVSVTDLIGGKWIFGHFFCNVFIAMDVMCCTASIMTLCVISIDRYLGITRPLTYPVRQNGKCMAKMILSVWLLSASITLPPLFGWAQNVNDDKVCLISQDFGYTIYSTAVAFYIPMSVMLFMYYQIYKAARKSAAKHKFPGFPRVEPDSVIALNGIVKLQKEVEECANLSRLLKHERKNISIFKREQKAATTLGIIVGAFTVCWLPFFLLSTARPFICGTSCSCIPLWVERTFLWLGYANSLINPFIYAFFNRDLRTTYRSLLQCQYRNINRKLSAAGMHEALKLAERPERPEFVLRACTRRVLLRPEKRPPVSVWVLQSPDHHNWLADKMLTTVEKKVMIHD
Chain of UniProt P43116 (whole entry, looked up): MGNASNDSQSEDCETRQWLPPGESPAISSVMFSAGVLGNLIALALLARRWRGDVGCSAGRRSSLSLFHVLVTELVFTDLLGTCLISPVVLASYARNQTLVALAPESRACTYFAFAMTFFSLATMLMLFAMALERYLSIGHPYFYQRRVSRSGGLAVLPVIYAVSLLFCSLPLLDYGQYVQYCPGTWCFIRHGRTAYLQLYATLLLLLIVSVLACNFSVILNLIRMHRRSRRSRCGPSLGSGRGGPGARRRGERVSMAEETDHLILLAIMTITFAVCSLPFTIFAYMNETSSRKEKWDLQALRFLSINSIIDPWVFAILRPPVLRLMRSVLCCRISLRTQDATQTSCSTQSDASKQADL
Chain of UniProt P08913 (whole entry, looked up): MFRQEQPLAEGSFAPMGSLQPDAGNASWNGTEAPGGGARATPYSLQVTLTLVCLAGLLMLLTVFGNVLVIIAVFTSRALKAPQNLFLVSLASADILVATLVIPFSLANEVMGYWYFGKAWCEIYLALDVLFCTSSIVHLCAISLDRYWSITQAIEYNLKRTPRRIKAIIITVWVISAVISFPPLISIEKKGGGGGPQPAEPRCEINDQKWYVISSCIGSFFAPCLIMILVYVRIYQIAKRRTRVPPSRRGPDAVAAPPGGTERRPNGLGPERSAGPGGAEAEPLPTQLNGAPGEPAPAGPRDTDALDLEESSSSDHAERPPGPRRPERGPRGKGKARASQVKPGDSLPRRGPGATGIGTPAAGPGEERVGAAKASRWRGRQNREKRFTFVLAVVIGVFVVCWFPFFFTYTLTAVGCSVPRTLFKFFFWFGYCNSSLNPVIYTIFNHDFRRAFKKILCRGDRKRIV
Chain of UniProt Q0VDG4 (whole entry, looked up): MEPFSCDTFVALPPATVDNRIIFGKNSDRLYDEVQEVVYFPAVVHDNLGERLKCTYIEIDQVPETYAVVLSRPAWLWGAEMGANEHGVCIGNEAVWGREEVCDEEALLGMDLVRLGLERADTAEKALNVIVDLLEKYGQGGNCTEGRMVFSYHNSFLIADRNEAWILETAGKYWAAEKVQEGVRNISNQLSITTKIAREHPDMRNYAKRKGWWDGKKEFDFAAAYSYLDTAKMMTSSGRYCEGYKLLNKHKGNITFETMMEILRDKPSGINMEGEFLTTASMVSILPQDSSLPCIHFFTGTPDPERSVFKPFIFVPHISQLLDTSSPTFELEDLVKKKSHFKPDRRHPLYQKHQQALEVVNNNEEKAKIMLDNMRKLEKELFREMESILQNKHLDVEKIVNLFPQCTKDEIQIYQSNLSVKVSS
Chain of UniProt P28222 (whole entry, looked up): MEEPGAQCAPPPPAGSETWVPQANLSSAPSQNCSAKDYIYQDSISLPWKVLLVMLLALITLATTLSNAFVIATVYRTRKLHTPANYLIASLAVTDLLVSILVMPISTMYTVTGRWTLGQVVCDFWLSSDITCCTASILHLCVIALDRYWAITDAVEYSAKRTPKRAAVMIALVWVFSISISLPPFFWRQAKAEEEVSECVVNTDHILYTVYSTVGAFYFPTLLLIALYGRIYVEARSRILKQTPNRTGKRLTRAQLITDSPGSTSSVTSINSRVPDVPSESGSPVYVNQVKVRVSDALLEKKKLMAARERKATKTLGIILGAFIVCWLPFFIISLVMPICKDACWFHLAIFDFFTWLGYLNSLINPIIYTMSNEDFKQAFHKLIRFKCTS

For `C=CCc1cccc(/C=N/NC(=O)CN2CCN(Cc3ccccc3)CC2)c1O`, the inhibition was -40.4 ± 21.4% (prp N63Q; enzyme activity; 10 µM, 21.4 nM enzyme dimer, with: 0.5 µM FITC-labelled peptide substrate).
`Clc1cccc(-c2c[nH]c3nccc(N4CCOCC4)c23)c1`: inhibition “inhibited” (STK4 (Homo sapiens, UniProt Q13043); kinase activity, inhibitor, PhosphoSens kinetic; concentration not given, 2 h, with: ATP at Km).
For `CC(C)[C@H](O)C(=O)N[C@@H](C)C(=O)N[C@@H]1C(=O)N(C)CCc2ccccc21`, the inhibition was -13.4 ± 11.5% (prp N63Q; enzyme activity, inhibitor; 10 µM, prp 21.4 nM, with: FITC peptide substrate 0.5 µM).
For `COCc1c(-c2cc3cc(C)cc(OC)c3s2)c2c(N)ncnn2c1CN1CCNC(=O)C1`, the inhibition was 14% (NMDA receptor agonist site; radioligand binding; 10 µM).
Under inhibition, `NNCc1c[nH]c2ccccc12` is recorded as “no inhibition” (Secernin-3 (Homo sapiens, UniProt Q0VDG4); probe labelling, inhibitor, competitive ABPP; HEK-293T cell lysate; concentration not given).
With `N=C(N)Nc1ccc2c(c1)B(O)OC2` the inhibition was at most 10% (F2; enzyme activity; 50 µM, with: substrate 50 µM).
`O=C(Nc1cnccc1Cl)N1CCN(Cc2ccc3c(c2)OC(F)(F)O3)CC1` gave an inhibition of 4% (PTGDR (Homo sapiens, UniProt Q13258); radioligand binding, inhibitor; 50 µM, human, with: [3H]prostaglandin D2).
The inhibition of `CCCC[C@@H](C=O)NC(=O)[C@H](CC(C)C)NC(=O)OCc1ccccc1` is reported as -8.54 ± 6.6% (prp N63Q; enzyme activity, inhibitor; 10 µM, prp 21.4 nM, with: FITC peptide substrate 0.5 µM).
For `CC[C@H]1CN2CCc3cc(OC)c(OC)cc3[C@@H]2C[C@@H]1C[C@H]1NCCc2cc(OC)c(OC)cc21`, inhibition read “no effect” (Serine hydrolase RBBP9 (Homo sapiens, UniProt O75884); competitive ABPP; 20 µM, Serine hydrolase RBBP9 400 nM, with: Pluronic F-127).
The inhibition of `OB1OCc2ccccc21` is reported as at most 10% (F2; enzyme activity; 50 µM, with: substrate 50 µM).
With `Cc1cc(N2CCN([C@@H]3CN[C@H](C(=O)N4CCSC4)C3)CC2)n(-c2ccccc2)n1` the inhibition was -17 ± 3.9% (prp N63Q; enzyme activity, inhibitor; 10 µM, prp 21.4 nM, with: FITC peptide substrate 0.5 µM).
For `Cc1onc(-c2ccc(F)cc2)c1C(=O)Nc1ccc2c(c1)B(O)OC2`, the inhibition was at most 10% (F2; enzyme activity; 50 µM, with: substrate 50 µM).
`CN(C(=O)n1cnc(-c2ccc[n+]([O-])c2)c1)C1CCCCC1` gave an inhibition of -7% (muscarinic receptor, rat; binding; 10 µM, with: [3H]oxotremorine M).
`O=c1ccc2ccccc2o1` gave an inhibition of -1.17% (ADRB2 (Homo sapiens, UniProt P07550); antagonist radioligand binding; 10 µM, SafetyScreen44).
`Cn1cccc1-c1cccnc1` gave an inhibition of 2% (HTR1B (Homo sapiens, UniProt P28222); binding; 50 µM).
The inhibition of `C[C@@H]1N=C(c2ccccc2F)c2cc(Br)ccc2-n2cnc(C(=O)O)c21` is reported as 2.8 ± 4.2% (HTR7 (Homo sapiens, UniProt P34969); binding; 10 µM).
`CN(CCN1CCC(OC(=O)Nc2ccccc2-c2ccccc2)CC1)C(=O)c1ccc(CN2CCC(C(N)=O)CC2)cc1` gave an inhibition of 3% (rat 5-HT receptor non-selective; radioligand binding; 1 µM, with: [3H]serotonin 2.0 nM).
`O=S(=O)(CC1CS1)c1ccc(Oc2ccccc2)cc1` (stereo not shown) gave an inhibition of 45.6 ± 5.4% (prp N63Q; enzyme activity; 10 µM, 21.4 nM enzyme dimer, with: 0.5 µM FITC-labelled peptide substrate).
`CN1CCN(c2cc(-c3ccncc3)c(-c3ccc4ccccc4c3)nn2)CC1` has an inhibition of 6.1% (CCR9 (Homo sapiens, UniProt P51686); antagonist, FLIPR; 10 µM).
`COc1cc(Nc2ncc(F)c(Nc3ccc4c(n3)NC(=O)C(C)(C)O4)n2)cc(OC)c1OC` has an inhibition of 89% (DMPK (Homo sapiens, UniProt Q09013); KINOMEscan; 10 µM).
The inhibition of `CCCC[C@@H](NC(=O)[C@@H](N)Cc1c(C)cc(O)cc1C)C(=O)NCC(=O)N[C@@H](Cc1ccc(F)cc1)C(=O)N(C)CCC[C@@]1(c2ccc(F)cc2)OCc2cc(C#N)ccc21` is reported as under 50% (ADRA2A (Homo sapiens, UniProt P08913); 10 µM).
`O=C(Nc1cccnn1)N1CCC(=Cc2cccc(Oc3ccc(C(F)(F)F)cn3)c2)CC1` gave an inhibition of 19% (PTGER2 (Homo sapiens, UniProt P43116); radioligand binding, inhibitor; 10 µM, human, with: [3H]prostaglandin E2).
The inhibition of `FC(F)(F)c1cccc(Nc2nc(NCCOc3ccccc3)nc3[nH]cnc23)c1` is reported as 6% and 3% (PRKACA (Homo sapiens, UniProt P17612); enzyme activity, inhibitor, Thermo Fisher kinase screening; 5 µM).
For `Clc1ccc2[nH]c3c(NCCCN4CCOCC4)ncnc3c2c1`, the inhibition was 0% (Beta-lactamase (ampC, Escherichia coli K-12, UniProt P00811); enzyme activity, inhibitor; 100 µM, with: CENTA substrate).
For `Nc1ccc(C(=O)Nc2ccc3c(c2)B(O)OC3)cc1`, the inhibition was at most 10% (F2; enzyme activity; 50 µM, with: substrate 50 µM).
`COc1ccc(N2C(=O)N(c3c(C)cccc3Cl)Cc3cnc(Nc4ccc(C5CCN(C)CC5)cc4OC)nc32)nc1` gave an inhibition of 5% (NEK7 (Homo sapiens, UniProt Q8TDX7); kinase activity; 0.5 µM).
With `CC(C)c1nc(CN(C)C(=O)N[C@H](C(=O)N[C@@H](Cc2ccccc2)C[C@H](O)[C@H](Cc2ccccc2)NC(=O)OCc2cncs2)C(C)C)cs1` the inhibition was -17.1 ± 19.9% (prp N63Q; enzyme activity, inhibitor; 10 µM, prp 21.4 nM, with: FITC peptide substrate 0.5 µM).
For `CC[C@H](C)[C@H](NC(=O)[C@@H](NC(=O)[C@H](N)Cc1ccccc1)C(C)C)C(=O)N[C@@H](C)C(N)=O`, the inhibition was 60.1% (APP (Homo sapiens, UniProt P05067); amyloid-beta aggregation, thioflavin T fluorescence; 0.5 µM, 120 h, with: 2 µM amyloid-beta).
The inhibition of `O=C1C2CC=CCC2C(=O)N1SC(Cl)(Cl)Cl` (stereo not shown) is reported as 25.8% (Luciferin 4-monooxygenase (Photinus pyralis, UniProt P08659); luciferase luminescence, inhibitor; cell-free; 50 µM, counter-screen).
`C[C@H](C(=O)N[C@H]1COc2ccccc2[C@@H]1S(C)(=O)=O)c1ccc(F)cc1` gave an inhibition of -17% (phosphodiesterase 4, human; enzyme activity; 10 µM, Eurofins selectivity panel).
`CCOC(=O)[C@H]1O[C@@H]1C(=O)N[C@@H](CC(C)C)C(=O)NCCC(C)C` gave an inhibition of 18.9 ± 11.5% (prp N63Q; enzyme activity, inhibitor; 10 µM, prp 21.4 nM, with: FITC peptide substrate 0.5 µM).
`CC(=O)NC[C@H]1[C@H](O)[C@H](O)[C@@H]2[C@H](O)C[C@@H](CO)N21` gave an inhibition of 19.2% (human placental β-N-acetylglucosaminidase; 0.000805 µM, run 2, with: p-nitrophenyl GlcNAc).
`Cc1c(O)cccc1C(=O)N[C@@H](CSc1ccccc1)[C@H](O)CN1C[C@H]2CCCC[C@H]2C[C@H]1C(=O)NC(C)(C)C` has an inhibition of 24.2 ± 7.1% (prp N63Q; enzyme activity, inhibitor; 10 µM, prp 21.4 nM, with: FITC peptide substrate 0.5 µM).
`O=C(Nc1ccc2c(c1)B(O)OC2)c1ccccc1OCc1ccccc1` gave an inhibition of at most 10% (F2; enzyme activity; 50 µM, with: substrate 50 µM).

Excerpt of the above:
The inhibition of `CCCC[C@@H](C=O)NC(=O)[C@H](CC(C)C)NC(=O)OCc1ccccc1` is reported as -8.54 ± 6.6% (prp N63Q; enzyme activity, inhibitor; 10 µM, prp 21.4 nM, with: FITC peptide substrate 0.5 µM).
For `CC[C@H]1CN2CCc3cc(OC)c(OC)cc3[C@@H]2C[C@@H]1C[C@H]1NCCc2cc(OC)c(OC)cc21`, inhibition read “no effect” (Serine hydrolase RBBP9 (Homo sapiens, UniProt O75884); competitive ABPP; 20 µM, Serine hydrolase RBBP9 400 nM, with: Pluronic F-127).
The inhibition of `OB1OCc2ccccc21` is reported as at most 10% (F2; enzyme activity; 50 µM, with: substrate 50 µM).
With `Cc1cc(N2CCN([C@@H]3CN[C@H](C(=O)N4CCSC4)C3)CC2)n(-c2ccccc2)n1` the inhibition was -17 ± 3.9% (prp N63Q; enzyme activity, inhibitor; 10 µM, prp 21.4 nM, with: FITC peptide substrate 0.5 µM).
